Results from different studies.
Numbered parts are unrelated; each lists some results of a single study.

Set 1 — technique: protein-binding microarray; molecule type: double-stranded DNA, one strand shown; sample: in vitro; concentration: 2540 nM top; notes: 60-bp whole probe; added: salmon DNA 0.4 mg/ml; reference: random background probes; reading: higher = stronger binding; constant ends, left off below: GCCTAGCAC … GTCTTGATTCGCTTGACGCTGCTG
Target: Interferon regulatory factor 3, full length, phosphomimetic (IRF3, Homo sapiens, UniProt Q14653, residues 1-427, S386D/S396D/S398D/S402D/T404D/S405D)
Construct (chain): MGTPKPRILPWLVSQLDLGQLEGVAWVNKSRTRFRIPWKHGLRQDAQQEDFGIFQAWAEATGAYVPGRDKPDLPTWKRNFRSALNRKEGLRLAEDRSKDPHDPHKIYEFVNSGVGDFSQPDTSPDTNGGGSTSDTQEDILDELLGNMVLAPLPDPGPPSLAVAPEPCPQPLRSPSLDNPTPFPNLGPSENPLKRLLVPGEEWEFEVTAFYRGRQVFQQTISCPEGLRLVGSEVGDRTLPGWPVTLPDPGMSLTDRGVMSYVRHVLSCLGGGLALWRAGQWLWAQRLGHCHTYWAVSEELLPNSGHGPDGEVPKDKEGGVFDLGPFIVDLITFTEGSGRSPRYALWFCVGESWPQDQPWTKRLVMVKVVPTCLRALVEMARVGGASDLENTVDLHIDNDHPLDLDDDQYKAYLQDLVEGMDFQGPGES
| Strand | fitted relative affinity |
| --- | --- |
| CTATGTCTGTTTTTGCTTTCGTGCTAG | 1.29 z-score |
| TCAAGTCTCAATATTAGACTGTGCTAG | 0.257 z-score |
| AGACATTCTTTCAGTTGGAAGTGCTAG | 0.52 z-score |
| TCATTTTAGCTTCTCAAACTGTGCTAG | 1.81 z-score |
| GACGAACTGAGTATCGAGAGGTGCTAG | -0.15 z-score |
| CTAAAAATCCCATTAAATTTGTGCTAG | 1.22 z-score |
| TTAGGTATCGGACGGGGTTAGTGCTAG | 0.0119 z-score |
| GACGATTTCGGTATCGAGACGTGCTAG | 4.53 z-score |
| GACGATTTCGGGAATCGAGACGTGCTA | 1.44 z-score |
| GACGATTGCAGTTCCGAGACGTGCTAG | 0.949 z-score |
| GACGGTATCCTTGTCCTGACGTGCTAG | 2.97 z-score |
| TCATCTCTACATGTGTTACTGTGCTAG | 0.991 z-score |
| CCCTTAAAAGACGTGCCAATGTGCTAG | 0.535 z-score |
| GCCGATCTCAGACTGGAGACGTGCTAG | 1.76 z-score |
| GACGATTTAGGGTATCGAGACGTGCTA | 0.461 z-score |
| GACGGTATGGGGTTTCGGGACGTGCTA | 0.838 z-score |
| GACGATATCCGTCTCGAGACGTGCTAG | 1.89 z-score |
| TTAGGTATCCGTCTCCTTTAGTGCTAG | 4.64 z-score |
| TTAGGACTGGACTATTGGTTAGTGCTA | -0.569 z-score |

Set 2 — technique: protein-binding microarray; molecule type: double-stranded DNA, one strand shown; sample: in vitro; concentration: not given; reading: higher = stronger binding
Target: Protein C-ets-1 (ETS1, Homo sapiens, UniProt P14921, residues 1-441, Y397A, full length assumed)
Notes: k-mer, scored over probes, only values ≥0.25
Residues (chain): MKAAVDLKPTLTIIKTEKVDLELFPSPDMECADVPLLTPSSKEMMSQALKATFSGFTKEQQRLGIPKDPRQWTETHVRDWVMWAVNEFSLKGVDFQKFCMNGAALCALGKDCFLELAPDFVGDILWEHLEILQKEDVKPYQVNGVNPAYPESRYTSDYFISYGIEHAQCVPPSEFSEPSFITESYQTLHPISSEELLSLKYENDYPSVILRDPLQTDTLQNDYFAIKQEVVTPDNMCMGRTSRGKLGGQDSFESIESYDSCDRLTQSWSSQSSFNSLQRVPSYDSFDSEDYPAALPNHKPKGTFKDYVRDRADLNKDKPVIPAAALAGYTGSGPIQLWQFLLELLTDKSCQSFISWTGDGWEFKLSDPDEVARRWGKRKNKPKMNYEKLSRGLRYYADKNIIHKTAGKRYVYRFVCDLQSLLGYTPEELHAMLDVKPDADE
| Strand | E-score |
| --- | --- |
| ATATGTAC | 0.28 |
| ATTACAAC | 0.275 |
| CGGATGTC | 0.398 |
| ATTGTCAG | 0.366 |
| GCTGGCAA | 0.3 |
| ATGTACGA | 0.337 |
| GCAAACAA | 0.269 |
| TATGACAA | 0.267 |
| GATGACAA | 0.339 |
| ACATGTCG | 0.259 |
| ACTTCCTC | 0.327 |
| CATCCGCA | 0.267 |
| GGCAGAAC | 0.268 |
| CGGACAAC | 0.296 |
| TAGTGACA | 0.292 |
| CCGCCCGC | 0.296 |
| AACAATGT | 0.31 |
| CCCGCCCG | 0.254 |
| CCCGCAAA | 0.277 |
| CCGCCAAA | 0.319 |
| CACATTGC | 0.256 |
| CGACAAAG | 0.273 |
| ATTGCCGA | 0.276 |
| ACACTTCC | 0.288 |
| AACGACAT | 0.289 |

Set 3 — technique: RNA Bind-n-Seq; molecule type: RNA; sample: in vitro; concentration: 365 nM; reference: no-protein control; reading: higher = stronger binding
Target: RNA binding protein fox-1 homolog 2, RRM domain, GST-SBP tag (RBFOX2, Homo sapiens, UniProt O43251-10, residues 100-194)
Notes: natural RNA segment, single round, ends assumed
Constant ends, left off below: GGGAGUUCUACAGUCCGACGAUC … UGGAAUUCUCGGGUGCCAA
Residues (chain): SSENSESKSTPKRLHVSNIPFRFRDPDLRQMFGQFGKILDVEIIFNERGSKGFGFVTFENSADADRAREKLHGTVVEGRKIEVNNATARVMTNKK
| Strand | RBNS enrichment (R) |
| --- | --- |
| GGAGCCGGUGUAAUUCCUCCCUAAGAGGCAACCUGUUGAAUUUACUCUCUCAGAGUAAAUGGUGGGAAGGGAUCCCUUUGUAUACUUUUUUAAAUACUACAAAUUAGUGU | 0.344 |
| UUGAGGAGGUGCUGCUGUUUGCUUUUAGGUAUGAGUGCUCAGGGGCCCUCACUGAAAGAGCCCAUGCCUGCCUUCCUCCUUUCAUCGCCUCUCUAGAGCCCCCAAAGUCA | 0.359 |
| UCGGGGGACCUGGCUUUGAGCUAGUUGGCCCCCAGCCCCAGCUGGUUUUUCUAAGGGUCAACUCAGACUGCCCUGUACCCUGGAAAAAUAGCAAUAGCAGCCCCAUCUAC | 0.495 |
| UCCGCCGCCUUCCACGCUAGGAUGUAAGAGGUCGCCUCCUAUUGUACAUUUGGGGAAAGCCUUGGGUGUAAAUCAGUGUAAACUUGGAGGAGAGAUUUUUCUAUCAUGUA | 0.279 |
| UUUCUUCAGAGUCAACCUUGGCCCUGAGAAGUAUGUCCUCCUGGUGUGCUCAGGCUCAACGGCAGUCUGGUGGCUGAAGGCACUUGGCCUCCUAAACCAAGCAGAAUUUU | 0.27 |
| CUACAGACAUAGCAUUUUUUCAGAGAUGGAAAAUGGCCAUUAGAGUCACUUUCCAUAUUAUACCCUCUAUAAAGUUGUCGAAUUGGAUGGGAGUUCUUUCUAACUAGCCA | 0.788 |
| UAAAGAUCAGACAUCUCCAAAAACAGAAAAAGUACAAGUAAACAACACACUUUCUCAUGACUUUUAAGAACUGUAGUAAUGUGGCUUAGGAAAUAUAAUGGCCUAAUUGU | 0.569 |
| GGUUCAGACCCGGGCAGCUCAGCUACCUCCUUCUACAUGGAGGUGGCCCUGGUCCCACCUCUAAUCCCUACUGUCAUCAGGCACUACAGCCCAAAAAGAGGUGCUUGUGA | 0.246 |

Set 4 — technique: RNA Bind-n-Seq; molecule type: RNA; sample: in vitro; concentration: 200 nM; notes: whole 134-nt RNA, ends assumed; added: 150 mM KCl; reference: input library; reading: higher = stronger binding
Target: Fragile X messenger ribonucleoprotein 1, C-terminal low-complexity region (Fmr1, Mus musculus, UniProt P35922)
Constant ends, left off below: GGGAGUUCUACAGUCCGACGAUC … UGGAAUUCUCGGGUGUCAAGG
| Strand | log2 enrichment |
| --- | --- |
| UAACUUUAGAGGAGGAUCUGACGGAUAUGGCAGUGGACGUGGAUUUGGGGAUGGCUAUAAUGGGUAUGGAGGAGGACCUGGAGGUGGCAA | 0.318 |
| UGGCAUGGAUCCAGUGGGCUGAGACCACCCUCAUUCAGCGGGAUCAGGAGCCAAUCCCGCAGAACAUUGACCGAGUUAAAGCCCUUAUCG | -1.11 |
| GAAAUUGAACCAGCAGCGAUGAAAGCAGCAGCUGCUGCCCCUGCCUCAGAGGAUGAGGACGAUGAGGAUGACGAAGAUGAUGAGGAUGAC | -0.846 |
| GGACAAGAAUCCUUCAAGAAACAGGAAAAAACUCCUAAAACACCAAAAGGACCUAGUUCUGUAGAAGACAUUAAAGCAAAAAUGCAAGCA | 0.4 |
| GUCCUGUGCUACACAUCGUAUGUACCGAAUCGGGUUUUUUGGUUUUUUGGGUUUUUUGGAAAGUAUUAUGUUACGCCGUUCGGAUCUGCA | -0.668 |
| UCCUGUGCUACACAUCGUAUGUACCGAAUCGGGGUUUUUGGGGUUUUUUUGGGGAGGGGAAAGUAUUAUGUUACGCCGUUCGGAUCUGCA | 0.74 |
| UCAAGUCCUGUGCUACACAUCGUAUGUACCGAAUCGGGAAAGGAAAGGGAAAGGAAAGUAUUAUGUUACGCCGUUCGGAUCUGCACUUCC | -0.437 |
| ACCAUGCAGGUGGGCAUCUUUGGGAAGUGCGGCAAGGGGGGGAUAGGGAGGGGGGUAACACUUUGGGAACAGGUGGUCCCAGGUCGUUUC | 1.03 |
| UGGGAGGUGCAUUUUGUUUAUUUUUUUAGCUCAUUUCCAGGGGUGGGAAUUUUUUUUUAAUAUGUGUCAUGAAUAAAGUUGUUUUUGAAA | 0.291 |

Some of these lines once more (set 2):
| Strand | E-score |
| --- | --- |
| ATGTACGA | 0.337 |
| CCCGCCCG | 0.254 |
| CACATTGC | 0.256 |
| ATTGTCAG | 0.366 |
| TATGACAA | 0.267 |
| GCAAACAA | 0.269 |
| AACAATGT | 0.31 |
